Published values from different studies.
Each line is one published result; not all experiments were run side by side. “And” joins repeats or separate records; there may be more than shown. ± gives the spread as reported.

Structure (SMILES)	assay	test system	conditions	how to read	quantity	value
Cc1ccc(C(=O)N(CCCN)C(c2nc3snc(C)c3c(=O)n2Cc2ccccc2)C(C)C)cc1 (stereo not drawn)	–	human patients	intravenous, 16 mg/day	–	grade ≥3 fatigue patients	0%
C[C@@H]1CN(Cc2ncccn2)C[C@H]1c1nc2c(cnn2C2CCOCC2)c(=O)[nH]1	–	mouse, plasma	intravenous, 0.3 mg/kg	–	volume of distribution	1.6 L/kg
CC(C)(C)OC[C@@H]1C(=O)NCCN1C(=O)C[C@H](N)Cc1cc(F)c(F)cc1F	–	human, plasma	oral, dose not given, DP treatment	–	AUC(tau) at steady state	91.8 ± 9.54 ng·h/mL
CCCCc1oc2ccccc2c1C(=O)c1cc(I)c(OCCN(CC)CC)c(I)c1	–	male Hartley guinea pigs, anaesthetized	intravenous, 10 mg/kg group, baseline before infusion	–	heart rate	245 ± 0.4 beats/min
O=C(O)c1ccc(OS(=O)(=O)O)c(O)c1	–	human CSF	concentration not given, mean	–	CSF concentration	not detected
Cc1cc(-c2nnc(N)nc2-c2ccc(F)cc2)cc(Cl)n1	item: Dizziness	human phase Ia/Ib colorectal cancer, immunotherapy-naive	oral, dose not given	–	patients with treatment-related adverse events	24%
COC(=O)N[C@H](C(=O)N[C@@H](Cc1ccccc1)[C@@H](O)CN(Cc1ccc(-c2ccccn2)cc1)NC(=O)[C@@H](NC(=O)OC)C(C)(C)C)C(C)(C)C	ultracentrifugation	phosphate buffer with HPMCAS	15 min, pH 6.5, 3% BSA	–	amorphous solubility	126 ± 7.7 µg/mL
O=C(/C=C/CCc1ccc(O)cc1)/C=C/c1ccc(O)cc1	–	nude mouse MCF7 xenograft	40 mg/kg, day 8	–	body weight	19.8 ± 0.92 g
Cc1cc(-c2nccc3c2ccn3CC(=O)Nc2ccc(-c3cnccn3)cn2)ccn1	–	healthy human volunteers	oral, 20 mg single dose, single ascending dose	–	respiratory thoracic mediastinal TEAEs	0%
COc1ncc(-c2nc3c(n2C(C)C)[C@H](c2ccc(Cl)cc2)N(c2cc(Cl)cn(C)c2=O)C3=O)c(OC)n1	LC-MS/MS, noncompartmental	human, plasma	oral, 200 mg, cycle 1 day 8, high-dose, geometric mean	–	AUC(0-last)	4890 ng·h/mL
CN1C(=O)[C@@H](NC(=O)c2nnc(Cc3ccccc3)[nH]2)COc2cccnc21	phase I single ascending dose	human, male and female	oral, 10 mg, fasted	–	participants with any AE of special interest	0%
C=CC(=O)N(C)CCOc1c(N)ncnc1-c1cc(F)cc(NC(=O)c2ccc(C3CC3)cc2F)c1C	–	human	oral, 50 mg, day 3, arithmetic mean, given alone	–	Cmax per dose	2.77 ng/mL/mg
C=CC(=O)N1CCC[C@@H](n2nc(-c3ccc(Oc4ccccc4)cc3)c3c(N)ncnc32)C1	–	male Wistar rat, plasma	oral, 40 mg/kg	–	AUMC(0-inf)	18400 ± 265 ng·h²/mL
OC[C@H]1O[C@@H](c2ccc(Cl)c(Cc3ccc(O[C@H]4CCOC4)cc3)c2)[C@H](O)[C@@H](O)[C@@H]1O	–	Japanese type 1 diabetes patients, blood	10 mg, day 28	reference: baseline	change in haematocrit	-0.9%
C[C@@H](Oc1ccc(S(C)(=O)=O)cc1C(=O)N1C[C@@H]2C[C@]2(c2cc(C(F)(F)F)on2)C1)C(F)(F)F	–	human	oral, 25 mg	–	incidence of Headache	50%
C[C@@H](Oc1ccc(S(C)(=O)=O)cc1C(=O)N1C[C@@H]2C[C@]2(c2cc(C(F)(F)F)on2)C1)C(F)(F)F	LC-MS/MS	young human subjects, plasma	oral, 75 mg once daily, single dose	–	half-life	37.1 h
CN(C(=O)n1cnc(-c2cccnc2)c1)[C@H]1CC[C@H](O)CC1	–	rat, cerebellum	oral, 10 mg/kg single dose, 1 h	–	tissue concentration	15.2 ± 0.9 ng/g
C=CC(=O)Nc1cc(Nc2nccc(-c3cn(C)c4ccccc34)n2)c(OC)cc1N(C)CCN(C)C	storage stability	human dried blood spot	2 h, -80 °C, LLOQ level	–	recovery	82.4%
CN1C[C@H](COc2nccc3c(NCc4ccco4)cc(Cl)nc23)OC1=O	–	rabbit NZW female, isolated Langendorff heart	3 µM, 15 min	–	heart rate	145 beats/min

Structure (SMILES)	assay	test system	conditions	how to read	quantity	value
O=C(Oc1coc(CSc2ncccn2)cc1=O)c1ccc([N+](=O)[O-])cc1	–	mouse liver microsomes	5 min, added: with or without NADPH	–	parent compound detection	not detected
CCc1c(-c2ccccc2)c(-c2ccccc2)nn1-c1ccccc1-c1cccc(OCC(=O)O)c1	–	Sprague-Dawley rat	intravenous, dose not given	–	AUMC(0-inf) observed	1730 h²·ng/mL and 2350 h²·ng/mL and 3460 h²·ng/mL
O=C1c2ccncc2C(=O)c2c1[nH]c1ccccc21	–	Sprague-Dawley rat, female, lung	oral, 5 mg/kg, 24 h	–	tissue concentration	0.021 ± 0.03 nmol/mg
O=C(Nc1cnccc1Cl)N1CCN(Cc2ccc3c(c2)OC(F)(F)O3)CC1	item: Haematoma	healthy elderly humans	100 mg once daily, 10 days	–	volunteers with adverse event	0%
CNc1ccc(-c2nc3ccc(O)cc3s2)cc1 [carbon-11 labelled]	ex vivo biodistribution	APP/PS1 mouse, AD model, cortex	intravenous, 30 min	–	SUV	0.147 ± 0.08
CCO[C@H]1CCN(Cc2c(OC)cc(C)c3[nH]ccc23)[C@H](c2ccc(C(=O)O)cc2)C1	item: abdominal pain	PNH patients with active haemolysis	oral, 200 mg, extension phase	–	adverse event incidence	0%
Cc1c(-c2ccc(N3CCc4cccc(C(=O)Nc5nc6ccccc6s5)c4C3)nc2C(=O)O)cnn1CC12CC3(C)CC(C)(C1)CC(OCCNCC[C@H](O)CO)(C3)C2	–	beagle dog, male, anaesthetised	intravenous infusion, 0.01 mg/kg/min, 30 min	reference: baseline	mean arterial pressure change	1 mmHg
COc1ccc(C#N)cc1-c1c[nH]c2ncc(-c3cncc(C(=O)N(C)C)c3)cc12	HPLC	–	50 µM, 37 °C, no lysine, followed to 24 h	–	hydrolytic half-life	> 24 h
CO[C@@H]1[C@H](OC(=O)N2CC(CCN3CCOCC3)C2)CC[C@]2(CO2)[C@H]1[C@@]1(C)O[C@@H]1CC=C(C)C	–	humans	subcutaneous, 0.6 mg twice weekly for 4 weeks, day 28	reference: baseline	activated partial thromboplastin time	-0.4 ± 1.4 s
[18F]c1ccc(-c2ccc3c(c2)[nH]c2ccncc23)cn1	ex vivo biodistribution	normal B6SJL mice, cecum	intravenous, 30 min	–	uptake	0.756 ± 0.231 SUV
Cc1ccc([C@@H]2O[C@H](CO)[C@@H](O)[C@H](O)[C@H]2O)cc1Cc1ccc(-c2ccc(F)cc2)s1	–	Japanese type 2 diabetes patients	200 mg, day 3, 24 h urine collection	reference: baseline	urinary sodium excretion change	15.6 mEq
CNC(=O)c1ccc(-c2cnc3ncc(Cc4ccc5ncccc5c4)n3n2)cc1F	–	cancer patients	oral, 600 mg twice daily, all grades RP2D expansion	–	AST increased incidence	16%
O=C(Nc1ccc(OC(F)(F)Cl)cc1)c1cnc(N2CC[C@@H](O)C2)c(-c2ccn[nH]2)c1	per patient, item: hemoglobin decrease	human patients	oral, dose not given, dose-finding study	–	grade ≥3 event rate	7.1%
CC(=O)N(C)[C@H]1CCN(C(=O)c2cnc3c(c2)C[C@](C)(c2ccc(F)cc2)N3)C1	item: Headache	human	oral, 30 mg once daily	–	adverse event duration	1 days
N[C@@H](Cc1ccc(O)c(O)c1)C(=O)O	–	MPTP-lesioned marmoset, dyskinetic	20 mg/kg	–	time to peak dyskinesia	30 min
Cc1c(C(=O)O)ccc2c3n(nc12)[C@@H]1[C@H](C3)N(CC2CC2)[C@@]2(C(=O)Nc3cc(Cl)ccc32)[C@H]1c1cccc(Cl)c1F	–	female BALB/c nude mice, plasma	oral, 2 mg/kg once daily, 24 h, SJSA-1 tumour-bearing	–	plasma concentration	769 nM and 1130 nM and 725 nM and 534 nM and 450 nM
COc1ccnc(C(=O)N[C@H]2COC(=O)[C@H](Cc3ccccc3)[C@@H](O)[C@H](C)OC2=O)c1O	FOCUS PEARL groundwater modelling	soil	geometric mean input	–	KOC	673 mL/g
N#Cc1ccc2c(c1)[C@H]1CCCN(C(=O)c3ccc4[nH]cnc4c3)[C@H]1C2	–	human males	160 mg, end of trial	–	SHBG level	31.7 nmol/L
C=CC(=O)NC1CCN(c2ncc3ncnc(Nc4ccc(Oc5ccc6c(c5)ncn6C)c(C)c4)c3n2)CC1	–	human, male	oral, 240 mg, treatment-emergent adverse event	–	participants with fatigue	6.3%

Structure (SMILES)	assay	test system	conditions	how to read	quantity	value
O=C(N[C@H](Cc1c[nH]c2ccccc12)C(=O)Nc1ccncc1)c1ccc(N2CCN(c3ccc(F)cc3F)CC2)cc1F	–	Swiss Webster mouse, female, intestine	oral, 50 mg/kg, 2 h, 20% Kolliphor vehicle	–	concentration	140000 nM
CC(C)NCC(O)COc1cccc2ccccc12 (stereo not drawn)	–	male Hartley guinea pigs, anaesthetized	intravenous, 3 mg/kg over 10 min, after infusion	–	heart rate	169 ± 0.8 beats/min
CCCCC1=NC2(CCCC2)C(=O)N1Cc1ccc(-c2ccccc2S(=O)(=O)Nc2noc(C)c2C)c(COCC)c1	–	healthy adult volunteers, plasma	oral, 800 mg, 14 days repeated dosing, fasted, crushed tablet	–	AUC(0-inf)	96900 ng·h/mL
O=C(O)CCc1ccccc1O	–	human CSF	concentration not given, mean	–	CSF concentration	not detected
CCN1/C(=C/C(C)=O)Sc2ccc(F)cc21	–	cynomolgus monkey	oral, 10 mg/kg, 0.5 h post-dose	reference: pre-dose	heart rate change	117 ± 13.2%
COc1c(N2C[C@@H]3CCCN[C@@H]3C2)c(F)cc2c(=O)c(C(=O)O)cn(C3CC3)c12	–	male Hartley guinea pigs, anaesthetized	intravenous, 10 mg/kg group, baseline before infusion	–	heart rate	249 ± 0.3 beats/min
CCN(Cc1ccc(CNC(=O)c2csc3nc[nH]c(=O)c23)cc1)C1CCCCC1	haemolysis	human red blood cells	1 h, 37 °C	–	EC50	> 100 µM
N#Cc1ccc(-c2cnc3ccc(-c4ccc(C(=O)N5CCOCC5)cc4)cn23)cc1	item: QTcF interval	healthy volunteers	oral, 10 mg, fed, time-averaged	–	placebo-corrected change from baseline	1.8 ms
CCc1cc(C(=O)NC)c2nccc(N3CCc4c(cc(Cn5ccnc5)cc4-c4cn(C)nc4C(F)(F)F)C3=O)c2c1	–	Sprague Dawley rats	oral, 100 mg/kg once daily, 7 days	–	serum AST activity	105 ± 2.87 U/L
OCCOCc1ccc(-c2noc(-c3ccc(OCC[18F])c(C(F)(F)F)c3)n2)cc1	radio-HPLC	Macaca mulatta, arterial plasma	60 min, radiotracer	–	parent fraction in plasma	37 to 38%
COc1cc2nccc(Oc3ccc(NC(=O)c4cc5c(n(-c6ccccc6)c4=O)CCCC5=O)nc3)c2cc1OC	–	patients with relapsed/refractory AML	oral, 3 mg once daily	–	TEAEs leading to interruption	40%
CNCc1ccc(-c2[nH]c3cc(F)cc4c3c2CCNC4=O)cc1	–	patients	oral, 840 mg twice daily, all grades	–	abdominal pain incidence	33.3%
CCOc1c([C@H](C)n2nc(C)c3c(N)ncnc32)cc(Cl)c(F)c1[C@@H]1CNC(=O)C1	item: QTcF ≤450 ms	previously treated B-cell malignancy	oral, 5 mg once daily, baseline QTcF ≤450 ms	–	ECG observations	100%
COc1cc(C(=O)O)ccc1O	–	human CSF	concentration not given, mean	–	CSF concentration	not detected
COc1ccc2c(=O)n(C)c(-c3ccccc3)nc2c1	–	Sprague-Dawley rat, male, bladder	oral, 30 mg/kg, 4 h	reference: bladder over plasma	tissue/plasma ratio	47.5
COc1cc(C=O)ccc1O	–	human CSF	concentration not given, mean	–	CSF concentration	not detected
Cc1cc(NC2CCN(C(=O)OC3CCN(C(=O)/C=C/CN(C)C)C3)CC2)n2ncc(C(C)C)c2n1 (stereo not drawn)	CTCAE v4.0, item: Hyponatremia	patients with advanced solid tumours	oral, dose not given, all schedules, grade 3 or higher	–	patients with TEAE	4%
CC(C)(C(=O)N1CCOc2c(C#N)cncc2C1)C(F)F	item: vessel puncture site pain	healthy humans, both sexes	oral, 40 mg single dose	–	subjects with TEAE	16.7%
O=C1CCc2ccc(OCCCCN3CCN(c4cccc(Cl)c4Cl)CC3)cc2N1	–	CYP2D6 intermediate metabolizers	concentration not given, genotype-based phenotype, long-acting oral or depot	–	cardiovascular symptom frequency	2.8%

A few entries again:
Structure (SMILES)	assay	test system	conditions	how to read	quantity	value
OCCOCc1ccc(-c2noc(-c3ccc(OCC[18F])c(C(F)(F)F)c3)n2)cc1	radio-HPLC	Macaca mulatta, arterial plasma	60 min, radiotracer	–	parent fraction in plasma	37 to 38%
OC[C@H]1O[C@@H](c2ccc(Cl)c(Cc3ccc(O[C@H]4CCOC4)cc3)c2)[C@H](O)[C@@H](O)[C@@H]1O	–	Japanese type 1 diabetes patients, blood	10 mg, day 28	reference: baseline	change in haematocrit	-0.9%
COc1cc(C(=O)O)ccc1O	–	human CSF	concentration not given, mean	–	CSF concentration	not detected
CO[C@@H]1[C@H](OC(=O)N2CC(CCN3CCOCC3)C2)CC[C@]2(CO2)[C@H]1[C@@]1(C)O[C@@H]1CC=C(C)C	–	humans	subcutaneous, 0.6 mg twice weekly for 4 weeks, day 28	reference: baseline	activated partial thromboplastin time	-0.4 ± 1.4 s
CC(C)(C(=O)N1CCOc2c(C#N)cncc2C1)C(F)F	item: vessel puncture site pain	healthy humans, both sexes	oral, 40 mg single dose	–	subjects with TEAE	16.7%
